# Published values gathered from unrelated publications.
# Numbered parts are unrelated; each lists some results of a single study. Changes are numbered by the printed parent chain.

# Set 1
# Target: CCNB3, cyclin fold, Cln2 fusion (human)
# Method: yeast growth competition, sequencing
# Sample: yeast
# Setting: strong parent motif
# Relative to: not given
# Direction: higher = stronger binding
# Starting sequence: BRCA2 docking peptide (human); PSIKRNLLNEFDR
Variant,normalised enrichment score
N9D,1.57
E10S,0.454
P1L,1.01
S2G,0.808
K4V,1.47
R5W,0.285
L7N,-1.12
I3A,0.501
P1N,1.59
N9P,1.15
K4Q,-0.104
L7W,0.144
N9R,1.36
F11D,0.0827
L7S,-0.383
K4N,0.165
L8G,-0.138
S2V,0.887
R5H,-0.0304
L8Y,0.494
E10N,0.453
L7G,0.23
I3L,1.17
F11S,-0.538
P1C,2.14

# Set 2
# Target: RNA binding protein fox-1 homolog 2, RRM domain, GST-SBP tag (RBFOX2, Homo sapiens, UniProt O43251-10, residues 100-194)
# Method: RNA Bind-n-Seq
# Form: RNA
# Sample: in vitro
# Tested at: 365 nM
# Setting: natural RNA segment, single round, ends assumed
# Relative to: no-protein control
# Direction: higher = stronger binding
# Constant ends, left off below: GGGAGUUCUACAGUCCGACGAUC … UGGAAUUCUCGGGUGCCAA
# Target sequence (chain): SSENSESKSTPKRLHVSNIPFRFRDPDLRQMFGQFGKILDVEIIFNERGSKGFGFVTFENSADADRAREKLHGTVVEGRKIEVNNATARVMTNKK
Oligonucleotide,RBNS enrichment (R)
GGUUGCUGUAGCAACAAGAGUGUUUGGUAGCUGACCAAGGUGUCAGGAUCCCUGACCCUAGCGAUACUUAACAGUUCUUCCCAUGUCCUAUGGUAUCUGUGCUUUUGGCU,0.287
GUCCAAGAGUAGCCUGUGGAAUCUGAUCAGUUACUUUAAAAAAUGACUCCUUAUUUUUUAAAUGUUUCCACAUUUUUGCUUGUGGAAAGACUGUUUUCAUAUGUUAUACU,0.412
CCUGAGCAGUUCUACCCUCCCAAGGCACCAGUACUCUACCAUGGGGCAUCCCAAGUGGGGUCCUCACCCAUCCCAGCUACUGCAGCUCUGUAUUACUUUGUCAUUUCCUG,0.242
UUUUAAAUACUAGAGAGACAGUGGACUAGGAAAGCGAGAACUUGCCGCCUUGUCUAGUGACUGUAUUCAAUGACUGAACAGAGGCCCCCCCCACCAUACAAGAGUUUUAG,0.457
CUGGCCAUCACCCCUCUCCUUGGAAAAUGCCACUGUGCUGUUUGAAAAAAAGCAGCCUUUUAGGGCUAGAGUAUUUUAUAUAAACAGAAGAGCUAAGUUCCUGAAGACUA,0.505
UCCUCUGAAUGAAUAGGAGGAUGGUACCAGCCAUGACAGAAACACCAGCAUUAGGUAUUACUACCUGCCUCUGUCACUAAGAAUUUCUUCUCUUCCAUCUUCUGUGAGUA,1.18
GUGGGUGCCGAGAAAGGAUCUGCCACCACCCUGACAUUGUGUUUUGGAACAGAGUUUUCUGAGAAAACAUUUUCAAGUUAAAGGAAAAUGCUAAGUCUGGCAUGGUAGUC,0.723
UGCAACUUGCGUAUCAUCUUCUCCACCUCCAAGUGUCUGAAUGCUUACACAAAUAAAUUUUAUAACUACUCAUUUUGCAUACUAUUCUUGAAAUGUGGCUCCACGGAGCA,1.02
UGGGAGCUGUUCUAAGAAAGGGACCUCCCUCUCCUUUUUAAAUUGGUGAGCCACAAAUUACAUUGAUUAUGUUGAACUUAUUAUUCUUCAAAGAAAAUAUUUUAAACCUG,0.392
GGUGGGGUUAAGACCAUUCUUCAGAUGUGGAAAUGAAGGCUCUGGGAGACCACAGGACAUGCCCAAGGCAAAGAGUUGGUAGUCCCUGGAUUUGGGAAUCAAACUCAAGC,0.685
UGUGCAGAAAGACGCUGAAAGUGCAAAAUGUAUUGGGGAAUAACCUUGUUGAAUCACAAUAAUGGUGUUGGGCCAAAGCCACAUUUUUAUAAAGCCAAGUAAACACAAAU,0.784
UUUUGUUGGUGACCUGGAUAGUGUGGCCUUUGGGACAGAUCAGAGGCACAGGAAAGCAAAGGAAAUGUGCCACCCUUUAGCCUGGCAGGGUCUCCCUGCCCACUGGGCUG,0.492

# Set 3
# Target: Sal-like protein 4, full length isoform B (SALL4, Homo sapiens, UniProt Q9UJQ4-2, residues 1-616)
# Method: universal PBM
# Form: double-stranded DNA, one strand shown
# Sample: in vitro
# Tested at: not given
# Setting: 8-mer, flanks averaged, mean of replicates
# Direction: higher = stronger binding
Oligonucleotide,E-score
AAAATCCT,0.0483
AACTGTGG,-0.106
AGCATTTA,0.114
CACTAACA,0.0813
GAATACCA,0.142
GAACGTCC,-0.107
TACACTAA,0.208
TATGTCGA,0.244
AAACCGAC,-0.171
CTTAAACC,-0.0665
AGAACGTC,0.0109
AACAGCTC,-0.0736
CAGAGGGA,-0.286
GAAACCGC,-0.132
CGACGGAC,-0.242
CATGACTC,-0.015
AGATATCG,0.0166
CACCGCGG,-0.302
AACCGTTA,0.0723
ACGCATGA,0.0884
CACGATGG,-0.168
GGAGAACC,-0.232
CATGAGAA,0.107
CATTACGA,0.0677
GACGCCGC,-0.374

# Set 4
# Target: FOXO3, forkhead domain (mouse, UniProt Q9WVH4, residues 31-263)
# UniProt Q9WVH4, sequence (31-263, looked up): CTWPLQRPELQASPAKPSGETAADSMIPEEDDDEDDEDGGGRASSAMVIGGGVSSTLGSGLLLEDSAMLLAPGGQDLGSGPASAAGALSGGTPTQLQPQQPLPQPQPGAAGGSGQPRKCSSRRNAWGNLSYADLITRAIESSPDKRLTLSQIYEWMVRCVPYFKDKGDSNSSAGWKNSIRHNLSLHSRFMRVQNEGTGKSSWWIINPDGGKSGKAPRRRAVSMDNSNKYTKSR
# Method: protein-binding microarray
# Form: hairpin DNA
# Sample: in vitro
# Tested at: not given
# Setting: whole hairpin DNA, median over replicate spots
# Relative to: not given
# Direction: higher = stronger binding
Oligonucleotide,median fluorescence
GAGGCCATGTAAACCACGCCTCCTGGCGTGGTTTACATGGCCTCACACTC (5mC at 15),4160 a.u.
GAGGCCACGTAACCAACGCCTCCTGGCGTTGGTTACGTGGCCTCACACTC,4450 a.u.
GAGGCCTTGCAAACAACGCCTCCTGGCGTTGTTTGCAAGGCCTCACACTC,4500 a.u.
GAGGCCATGTACCCAACGCCTCCTGGCGTTGGGTACATGGCCTCACACTC (5mC at 12),4090 a.u.
GAGGCCCGGTAACCAACGCCTCCTGGCGTTGGTTACCGGGCCTCACACTC,4780 a.u.
GAGGCCATGTAACGAACGCCTCCTGGCGTTCGTTACATGGCCTCACACTC (5mC at 13),3880 a.u.
GAGGCCCGGTAAACAACGCCTCCTGGCGTTGTTTACCGGGCCTCACACTC (5mC at 7),6450 a.u.
GAGGCCGTGCAAACAACGCCTCCTGGCGTTGTTTGCACGGCCTCACACTC,5370 a.u.
GAGGCCATGCAACCAACGCCTCCTGGCGTTGGTTGCATGGCCTCACACTC (5mC at 10),4520 a.u.
GAGGCCATGTAACCAACGCCTCCTGGCGTTGGTTACATGGCCTCACACTC,4020 a.u.

# Set 5
# Target: Ras GTPase-activating protein-binding protein 1, full length (G3BP1, Homo sapiens, UniProt Q13283)
# UniProt Q13283, sequence (whole entry, looked up): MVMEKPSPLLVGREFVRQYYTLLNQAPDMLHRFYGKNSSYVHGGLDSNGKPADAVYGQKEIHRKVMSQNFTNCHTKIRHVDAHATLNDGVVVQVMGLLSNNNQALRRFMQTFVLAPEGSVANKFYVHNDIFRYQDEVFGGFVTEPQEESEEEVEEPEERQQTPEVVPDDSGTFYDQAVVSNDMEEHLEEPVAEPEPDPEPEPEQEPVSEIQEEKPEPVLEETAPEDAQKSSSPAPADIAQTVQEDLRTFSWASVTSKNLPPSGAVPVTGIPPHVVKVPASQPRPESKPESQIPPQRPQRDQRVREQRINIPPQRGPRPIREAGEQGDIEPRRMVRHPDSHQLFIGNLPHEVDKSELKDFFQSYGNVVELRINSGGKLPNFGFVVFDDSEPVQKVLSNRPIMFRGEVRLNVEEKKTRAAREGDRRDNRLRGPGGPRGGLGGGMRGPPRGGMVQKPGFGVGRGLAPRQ
# Method: RNA Bind-n-Seq
# Form: RNA
# Sample: in vitro
# Tested at: 200 nM
# Setting: whole 134-nt RNA, ends assumed
# Together with: 150 mM LiCl
# Relative to: input library
# Direction: higher = stronger binding
# Library: 7-deaza-guanosine replaces G
# Constant ends, left off below: GGGAGUUCUACAGUCCGACGAUC … UGGAAUUCUCGGGUGUCAAGG
Oligonucleotide,log2 enrichment
UGGGAGGUGGAUUUUGUUUAUUUUUUUAGCUCAUUUCCAGGGGUGGGAAUUUUGUUUUAAUAUGUGUCAUGAAUAAAGUUGUUUUUGAAA,-0.391
AAGUCCUGUGCUACACAUCGUAUGUACCGAAUCGGGGCCCCGGCCCCGGCCCCGGGGAAAGUAUUAUGUUACGCCGUUCGGAUCUGCACU,-1.01
UAACUUUAGAGGAGGAUCUGAUGGAUAUGGCAGUGGACGUGGAUUUGGGGAUGGCUAUAAUGGGUAUGGAGGAGGACCUGAAGGUGGCAA,-0.256
GCAGGAAGUAAGAACAAAUGGAAAUGCUUCGGAUAGUGGCAGGGGUGGGGGUUGCUAAGGAAAGGGUGGGAUGGGAGUGGGUAAAGAGUU,-0.0796
UGGCCCUGGUGGCAUGCGGGAAGGAAGAGGUGGCCUCAUGGAUCGUGGUGGUCCCGGUGGAAUGUUCAGAGGUGGCCGUGGUGGAGACAG,0.377
CAAGUCCUGUGCUACACAUCGUAUGUACCGAAUCGGGGAAAGGAAAGGAAAGGGGAAAGUAUUAUGUUACGCCGUUCGGAUCUGCACUUC,0.112
AAGUCCUGUGCUACACAUCGUAUGUACCGAAUCGGUUUUUUUGGAAAAAAAGGAGGAAAGUAUUAUGUUACGCCGUUCGGAUCUGCACUU,-2.06
UUCUUGCCAGAGACGAAGAAGCGCAAGAAACGCAAGUCAGAGGAUGGCACGCCAGCGGAGGAUGGCACACCUGCAGCCACCGGCGGGAGC,-1.18
AAGUCCUGUGCUACACAUCGUAUGUACCGAAUCGGAAAAAAAGGAAAGGAAAAAGGAAAGUAUUAUGUUACGCCGUUCGGAUCUGCACUU,-0.891
UCCUGUGCUACACAUCGUAUGUACCGAAUCAAACCCCCCCAAAUUUUUAAACCCCCAAAAAAGUAUUAUGUUACGCCGUUCGGAUCUGCA,1.4
AGUCCUGUGCUACACAUCGUAUGUACCGAAUCGGGGCCCCGGGGCCCCGGGCCCCGGGAAAGUAUUAUGUUACGCCGUUCGGAUCUGCAC,-1.15

# Excerpt of the above (set 2):
Oligonucleotide,RBNS enrichment (R)
GUCCAAGAGUAGCCUGUGGAAUCUGAUCAGUUACUUUAAAAAAUGACUCCUUAUUUUUUAAAUGUUUCCACAUUUUUGCUUGUGGAAAGACUGUUUUCAUAUGUUAUACU,0.412
CCUGAGCAGUUCUACCCUCCCAAGGCACCAGUACUCUACCAUGGGGCAUCCCAAGUGGGGUCCUCACCCAUCCCAGCUACUGCAGCUCUGUAUUACUUUGUCAUUUCCUG,0.242
UUUUAAAUACUAGAGAGACAGUGGACUAGGAAAGCGAGAACUUGCCGCCUUGUCUAGUGACUGUAUUCAAUGACUGAACAGAGGCCCCCCCCACCAUACAAGAGUUUUAG,0.457
CUGGCCAUCACCCCUCUCCUUGGAAAAUGCCACUGUGCUGUUUGAAAAAAAGCAGCCUUUUAGGGCUAGAGUAUUUUAUAUAAACAGAAGAGCUAAGUUCCUGAAGACUA,0.505
UCCUCUGAAUGAAUAGGAGGAUGGUACCAGCCAUGACAGAAACACCAGCAUUAGGUAUUACUACCUGCCUCUGUCACUAAGAAUUUCUUCUCUUCCAUCUUCUGUGAGUA,1.18
GUGGGUGCCGAGAAAGGAUCUGCCACCACCCUGACAUUGUGUUUUGGAACAGAGUUUUCUGAGAAAACAUUUUCAAGUUAAAGGAAAAUGCUAAGUCUGGCAUGGUAGUC,0.723
UGCAACUUGCGUAUCAUCUUCUCCACCUCCAAGUGUCUGAAUGCUUACACAAAUAAAUUUUAUAACUACUCAUUUUGCAUACUAUUCUUGAAAUGUGGCUCCACGGAGCA,1.02
UGGGAGCUGUUCUAAGAAAGGGACCUCCCUCUCCUUUUUAAAUUGGUGAGCCACAAAUUACAUUGAUUAUGUUGAACUUAUUAUUCUUCAAAGAAAAUAUUUUAAACCUG,0.392
GGUGGGGUUAAGACCAUUCUUCAGAUGUGGAAAUGAAGGCUCUGGGAGACCACAGGACAUGCCCAAGGCAAAGAGUUGGUAGUCCCUGGAUUUGGGAAUCAAACUCAAGC,0.685
UGUGCAGAAAGACGCUGAAAGUGCAAAAUGUAUUGGGGAAUAACCUUGUUGAAUCACAAUAAUGGUGUUGGGCCAAAGCCACAUUUUUAUAAAGCCAAGUAAACACAAAU,0.784
